Experimental data collected from several papers.
A part holds a random share of what one study measured. Changes are numbered by the printed parent chain.

Study 1
Target: Hepatocyte nuclear factor 3-alpha (Foxa1, Mus musculus, UniProt P35582, residues 1-468, full length assumed)
Method: EMSA with sequencing
Form: double-stranded DNA, one strand shown
Matrix: in vitro
Tested at: 10 and 20 nM
Notes: whole designed probe, mean of two concentrations, ends assumed
Relative to: negative control set to 0
Reading: higher = stronger binding
All sequences stand within: GTGAGCGGTGCCCATTGATGGGGAAC … TTTCACTGGGATCGTGGGGAC
Residues (chain): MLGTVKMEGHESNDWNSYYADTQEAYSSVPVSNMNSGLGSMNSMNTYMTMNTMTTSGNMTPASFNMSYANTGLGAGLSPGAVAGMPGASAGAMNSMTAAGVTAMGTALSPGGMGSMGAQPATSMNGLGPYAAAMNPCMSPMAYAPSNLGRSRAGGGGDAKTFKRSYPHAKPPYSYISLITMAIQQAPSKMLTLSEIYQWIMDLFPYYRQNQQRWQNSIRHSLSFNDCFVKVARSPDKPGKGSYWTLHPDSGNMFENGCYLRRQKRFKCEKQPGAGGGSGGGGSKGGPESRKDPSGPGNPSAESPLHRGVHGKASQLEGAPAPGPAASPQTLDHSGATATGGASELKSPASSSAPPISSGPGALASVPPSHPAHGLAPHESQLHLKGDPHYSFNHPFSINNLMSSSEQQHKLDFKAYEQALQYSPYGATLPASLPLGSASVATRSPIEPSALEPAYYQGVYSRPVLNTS
`GCTTTAAATATCAAGCCTAAGCTAATGTAAGCAAAGGATATTGTTAGTAGTAGCAAATTAGTATTAGTAGTAGCAAATTAATTAATTCAGTGAAGATTACTAAATATCCTCAATTATGTTATTTGTTAATTTGAAGTTTCTGTAAGAAAGAGAATACATGAACTTGAATTTCACAAATACCTGTGAATTGCAC`: “normalised bound fraction” 0.111 ratio.
`GGAGCTAAAAATCAGCTTGTCTGAAAATTCTCATAAAATTTGCAAAACCCTGAAACTGAAAGTTCTGCAGTGCAGAGGCATTTCCATGCAATGTAATCTAGGTCAGTTAGGGCCTCTTGGAACTATGCTGGGATGGGGGCCACTGTCAGTCAAGCTACTGTTGGGCTTGGGATGAGGATGGAGGGAACTGACC` — result for “normalised bound fraction”: -0.0861 ratio.
`GCATACCAGTTGATGCCCCAGCCCTCCCTCCCAGGTAGATTTTGAAATCCTCTAGATGTGGAAAAATCTAAACATATTGTGCAAATTACAGAGTAATCTAGGGGAGTTGAGGATTTCATAAGCATGTTCTCCACTTTTTTTTCCCTTTTCCTCTTCCATCTTGGGAGTAGAAGAAAACAGATTCGGTTTACCT` — result for “normalised bound fraction”: -0.0411 ratio.
`AGACTGGCTGCCCGGCTGGAAGGTGGGGCCCTGGCACGCGAGGACCTCATGTGTGGAGGCACTGGCTTGGGGGGTGCTCCCAGTGGCTCTAGAGTCAACATGACAGGCATCGAATGGCTCCTGTTTCTCTGGCAGAGTTGGGGCAGAGCCAGGCTTGGCCACGCTGGGCTCTAAGGGGCTGTCATTTTGCCCA` — result for “normalised bound fraction”: 0.0934 ratio.
For `GACAGTACATGTTTTAGGATTTTTGGACCACACAGTCTCTGTCACAATGACTCAGCTTTGCCATTGTAGCGTGCAAACAGCCACAAACCATATGCAAACAAATGTATGCCAAGAGGGTGTGGTTAAAACTTTATTTACAAAAGCAGGAGGACAGTGGAGTTGGCTTGCAGACAGTCATTTGCAGAGCCCTGAT`, “normalised bound fraction” read 0.426 ratio.

Study 2
Target: RNA binding protein fox-1 homolog 2, RRM domain, GST-SBP tag (RBFOX2, Homo sapiens, UniProt O43251-10, residues 100-194)
Method: RNA Bind-n-Seq
Form: RNA
Matrix: in vitro
Tested at: 365 nM
Notes: natural RNA segment, single round, ends assumed
Relative to: no-protein control
Reading: higher = stronger binding
All sequences stand within: GGGAGUUCUACAGUCCGACGAUC … UGGAAUUCUCGGGUGCCAA
Residues (chain): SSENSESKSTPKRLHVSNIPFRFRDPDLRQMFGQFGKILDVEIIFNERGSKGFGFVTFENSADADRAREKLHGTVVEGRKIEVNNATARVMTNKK
Under “RBNS enrichment (R)”, `GCUGCCUCAUGUGACUGCCGUGCCUGUGAAUACGCAGAACCAGGACUCCACCCCACCGUGGAAAGGGAGCUUGAAGCAGAAAAGAGGGCGCCUCGGAGCCAAUGUUGAGC` is recorded as 0.445.
Under “RBNS enrichment (R)”, `GUGUGAUCCUACUUGAAAACAACCCUUGAGGAGGGCGCCUCGGUCACUGUGAGCAUGUCAGAGGCUUUCUGUGUAGAUGUCCUGCCAUGGGUGAUGUGUGAUCUACCAGU` is recorded as 2.83.
`UCCGAUUUGCCAUCGAAAAAGACAACCUCUACUUUUUUCUUUUGUAUUUUGAUAAACACUGAAGCUGGAGCUGUUAAAUUUAUCUUGGGGAAACCUCAGAACUGGUCUAU` — result for “RBNS enrichment (R)”: 0.557.
Under “RBNS enrichment (R)”, `UUUUGGGACUUAUAUGAUUUUAAAUAUUUCAUAUUCUCCCUCCCACUCCUACUCUCCCUCCUUCCCUCUCUCCAUCCCUUCCUCCUACCUAAAGGAAUGGAAUGAUGCUG` is recorded as 0.564.
`AUUUUGACAAAUAUAUUUAUAACUACAUAUUAAAAGAAAAUAAAAUGAGUCAUUAUUUUAAAGAUAACUAAGACCUUUCUAUCUUAUUUCCUCUUCCAUACUCUUGAAUG` — result for “RBNS enrichment (R)”: 0.445.
For `UCCUCUCCUGUCACCCUAAGAGCCACUGAGUUGUGUAGGGAUGAAGACUAUUGAAGACUCCAUUGCCAAACCAUGGCCUUUCCUCAGUGUUGUAAGGCCUAUGCCAAGGA`, “RBNS enrichment (R)” read 0.22.
Under “RBNS enrichment (R)”, `CCAGGAGUAGAAUAUGAAGUGCUAAAUCUGAAUGUAAGAAAAAUAAUAGUAUUGAAUGGGGUAUUUACUGUUGAUUAACCUCCUUAGAGAAAAUUAAUGAAUGAGAUGAC` is recorded as 7.32.

Study 3
Target: ABI1, truncated, D143A, DHFR fusion (Arabidopsis thaliana)
Method: DHFR PCA, deep sequencing
Matrix: yeast
Notes: methotrexate growth selection, single substitutions
Added: (+)-ABA 2500 µM
Relative to: wild-type fitted maximum
Reading: higher = stronger binding
Starting sequence: PYL1, truncated, DHFR fusion (Arabidopsis thaliana); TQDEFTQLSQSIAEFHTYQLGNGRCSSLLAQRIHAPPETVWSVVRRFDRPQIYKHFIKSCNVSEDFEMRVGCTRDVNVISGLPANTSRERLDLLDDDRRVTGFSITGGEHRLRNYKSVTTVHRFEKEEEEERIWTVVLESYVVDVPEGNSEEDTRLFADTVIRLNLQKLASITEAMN; partner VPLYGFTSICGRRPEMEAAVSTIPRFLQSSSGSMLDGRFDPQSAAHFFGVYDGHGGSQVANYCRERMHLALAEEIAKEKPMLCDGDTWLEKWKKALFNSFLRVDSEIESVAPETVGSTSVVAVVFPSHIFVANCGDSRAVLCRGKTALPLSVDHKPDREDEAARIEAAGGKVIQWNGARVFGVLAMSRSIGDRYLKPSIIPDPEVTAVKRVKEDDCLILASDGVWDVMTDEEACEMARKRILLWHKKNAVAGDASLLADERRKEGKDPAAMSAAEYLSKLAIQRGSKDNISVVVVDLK
`E89F`: “relative binding score” -14%.
Under “relative binding score”, `V137Y` is recorded as 19.4%.
`R123Q`: “relative binding score” 98.5%.
`S9T` — result for “relative binding score”: 101%.
`L8G`: “relative binding score” 86.4%.

Other studies, line by line
`PhoQ, residues 284 288 289 292 302 303 ALASRC` has a fold induction of 8.12 (PhoP, residues 12 14 15 18 19 LYFRQ (Escherichia coli, UniProt P23836); Sort-seq, item: YFP reporter; E. coli; PhoQ-PhoP variant library, added: 10 µM Mg2+; relative to: high Mg2+ state, higher = stronger signaling).

Excerpt of the above (study 2):
Under “RBNS enrichment (R)”, `UUUUGGGACUUAUAUGAUUUUAAAUAUUUCAUAUUCUCCCUCCCACUCCUACUCUCCCUCCUUCCCUCUCUCCAUCCCUUCCUCCUACCUAAAGGAAUGGAAUGAUGCUG` is recorded as 0.564.
`UCCGAUUUGCCAUCGAAAAAGACAACCUCUACUUUUUUCUUUUGUAUUUUGAUAAACACUGAAGCUGGAGCUGUUAAAUUUAUCUUGGGGAAACCUCAGAACUGGUCUAU` — result for “RBNS enrichment (R)”: 0.557.
